Published values of several laboratories.
Protocols differ between the studies behind these lines. ± marks the error that the study gave.

CCCC[C@H](NC(=O)CNC(=O)CNC(=O)CN1CCN(CC(=O)O)CCN(CC(=O)O)CC1)C(=O)N[C@H]1CC(=O)NCCCC[C@@H](C(N)=O)NC(=O)[C@H](Cc2c[nH]c3ccccc23)NC(=O)[C@H](CCCNC(=N)N)NC(=O)[C@@H](Cc2ccccc2)NC(=O)[C@H](Cc2c[nH]cn2)NC1=O [gallium-67 labelled] gave a tissue uptake of 0.5 ± 0.12 %ID/g (female C57 mice, B16/F1 melanoma, liver; intravenous, 0.037 MBq, 24 h).
The tissue uptake of CN1C(=O)[C@@H](Cc2ccc(O)c(I)c2)NC(=O)CNC(=O)[C@H](Cc2ccc3ccccc3c2)NC(=O)[C@H](CCCNC(=N)N)NC(=O)[C@H]1CCCNC(=O)c1ccc(CNC(=O)CN2CCN(CC(=O)O)CCN(CC(=O)O)CCN(CC(=O)O)CC2)cc1 [lutetium-177 labelled] is reported as 0.02 ± 0.005 %ID/g (refers to: 177Lu radioactivity; female CB-17 SCID mice, Daudi xenograft, brain; intravenous, 0.16 nmol per mouse, 6 h).
With CCCC[C@H](NC(=O)CNC(=O)CNC(=O)CN1CCN(CC(=O)O)CCN(CC(=O)O)CCN(CC(=O)O)CC1)C(=O)N[C@H]1CC(=O)NCCCC[C@@H](C(N)=O)NC(=O)[C@H](Cc2c[nH]c3ccccc23)NC(=O)[C@H](CCCNC(=N)N)NC(=O)[C@@H](Cc2ccccc2)NC(=O)[C@H](Cc2c[nH]cn2)NC1=O [gallium-67 labelled] the tissue uptake was 3.23 ± 0.07 %ID/g (female C57 mice, B16/F1 melanoma, lung; intravenous, 0.037 MBq, 0.5 h).
For CCCC[C@H](NC(=O)CN1CCC(NC(=O)CN2CCN(CC(=O)O)CCN(CC(=O)O)CCN(CC(=O)O)CC2)CC1)C(=O)N[C@H]1CC(=O)NCCCC[C@@H](C(N)=O)NC(=O)[C@H](Cc2c[nH]c3ccccc23)NC(=O)[C@H](CCCNC(=N)N)NC(=O)[C@@H](Cc2ccccc2)NC(=O)[C@H](Cc2c[nH]cn2)NC1=O [gallium-68 labelled], the tissue uptake was 4.7 ± 1.1 %ID/g (C57BL/6J mice male B16-F10 tumour, thyroid; 2 h post injection, unblocked).
For O=C([O-])c1cccc(CN(CCN(Cc2cn(Cc3ccccc3)nn2)Cc2cccc(C(=O)[O-])n2)Cc2cn(Cc3ccccc3)nn2)n1.[64Cu+2], the tissue uptake was 3.44 %ID/g (healthy athymic nude mice, heart; intravenous, 24 h).
With CCCC[C@@H]1NC(=O)[C@@H](NC(=O)[C@H](CCC(=O)O)NC(=O)CNC(=O)CN2CCN(CC(=O)O)CCN(CC(=O)O)CCN(CC(=O)O)CC2)CCCCNC(=O)C[C@@H](C(N)=O)NC(=O)[C@H](C(C)C)NC(=O)[C@@H]2CCCN2C(=O)[C@H](CCCNC(=N)N)NC(=O)CNC(=O)[C@H](Cc2c[nH]c3ccccc23)NC(=O)[C@H](CCCNC(=N)N)NC(=O)[C@@H](Cc2ccccc2)NC(=O)[C@H](Cc2c[nH]cn2)NC(=O)[C@H](CCC(=O)O)NC1=O [gallium-67 labelled] the tissue uptake was 22.8 ± 4.32 %ID/g (C57 mice, B16/F1 flank melanoma, kidneys; intravenous, 2 h, with: blocking peptide 10 µg).
With N=C(N)NCCC[C@H](NC(=O)CON=C[C@H](F)[C@@H](O)[C@H](O)[C@H](O)CO)C(=O)NCC(=O)N[C@@H](CC(=O)O)C(=O)O [fluorine-18 labelled] the tissue uptake was 0.16 ± 0.02 %ID/g (nude mice U-87 MG tumour, brain; intravenous, 2 h).
The tissue uptake of NC12CNCCNCC(NCc3ccc(CNC(=O)CCCC(=O)NCc4ccc(-c5nncnn5)cc4)cc3)(CNCCNC1)CNCCNC2.[64Cu+2] is reported as 0.2 ± 0.04 %ID/g (athymic nude mice, SW1222 xenograft, large intestine with contents; 12 h, pretargeting with huA33-TCO, 24 h interval).

Excerpt of the above:
With CCCC[C@@H]1NC(=O)[C@@H](NC(=O)[C@H](CCC(=O)O)NC(=O)CNC(=O)CN2CCN(CC(=O)O)CCN(CC(=O)O)CCN(CC(=O)O)CC2)CCCCNC(=O)C[C@@H](C(N)=O)NC(=O)[C@H](C(C)C)NC(=O)[C@@H]2CCCN2C(=O)[C@H](CCCNC(=N)N)NC(=O)CNC(=O)[C@H](Cc2c[nH]c3ccccc23)NC(=O)[C@H](CCCNC(=N)N)NC(=O)[C@@H](Cc2ccccc2)NC(=O)[C@H](Cc2c[nH]cn2)NC(=O)[C@H](CCC(=O)O)NC1=O [gallium-67 labelled] the tissue uptake was 22.8 ± 4.32 %ID/g (C57 mice, B16/F1 flank melanoma, kidneys; intravenous, 2 h, with: blocking peptide 10 µg).
